Measurements collected from several papers.
± marks the error that the study gave. ≈ marks a conversion by molar mass, not a printed value.
AHR: Aryl hydrocarbon receptor (AHR, Homo sapiens, UniProt P35869)
Sequence of UniProt P35869 (whole entry, looked up): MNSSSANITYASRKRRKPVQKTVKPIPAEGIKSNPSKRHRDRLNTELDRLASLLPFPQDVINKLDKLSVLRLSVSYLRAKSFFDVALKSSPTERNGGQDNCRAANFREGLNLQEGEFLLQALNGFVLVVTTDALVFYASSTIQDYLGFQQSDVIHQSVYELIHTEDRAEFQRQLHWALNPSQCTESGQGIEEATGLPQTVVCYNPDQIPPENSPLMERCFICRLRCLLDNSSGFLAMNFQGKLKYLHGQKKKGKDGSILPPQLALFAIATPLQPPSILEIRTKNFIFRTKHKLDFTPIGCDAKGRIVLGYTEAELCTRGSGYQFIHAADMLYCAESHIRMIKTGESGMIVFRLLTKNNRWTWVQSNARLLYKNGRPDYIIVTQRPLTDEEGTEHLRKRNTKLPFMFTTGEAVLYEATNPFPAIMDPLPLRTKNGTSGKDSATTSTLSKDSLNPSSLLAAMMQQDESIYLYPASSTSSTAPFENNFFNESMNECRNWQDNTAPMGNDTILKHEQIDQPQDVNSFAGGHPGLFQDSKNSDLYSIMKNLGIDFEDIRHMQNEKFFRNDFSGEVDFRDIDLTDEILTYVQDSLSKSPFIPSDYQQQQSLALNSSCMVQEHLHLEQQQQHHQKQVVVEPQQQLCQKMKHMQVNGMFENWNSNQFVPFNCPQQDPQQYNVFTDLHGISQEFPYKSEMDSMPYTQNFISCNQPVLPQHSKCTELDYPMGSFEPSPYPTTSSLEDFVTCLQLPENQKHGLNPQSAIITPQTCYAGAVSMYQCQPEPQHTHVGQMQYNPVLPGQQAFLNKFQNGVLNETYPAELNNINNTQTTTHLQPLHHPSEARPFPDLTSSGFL
SLCO1B1: Solute carrier organic anion transporter family member 1B1 (SLCO1B1, Homo sapiens, UniProt Q9Y6L6)
Sequence of UniProt Q9Y6L6 (whole entry, looked up): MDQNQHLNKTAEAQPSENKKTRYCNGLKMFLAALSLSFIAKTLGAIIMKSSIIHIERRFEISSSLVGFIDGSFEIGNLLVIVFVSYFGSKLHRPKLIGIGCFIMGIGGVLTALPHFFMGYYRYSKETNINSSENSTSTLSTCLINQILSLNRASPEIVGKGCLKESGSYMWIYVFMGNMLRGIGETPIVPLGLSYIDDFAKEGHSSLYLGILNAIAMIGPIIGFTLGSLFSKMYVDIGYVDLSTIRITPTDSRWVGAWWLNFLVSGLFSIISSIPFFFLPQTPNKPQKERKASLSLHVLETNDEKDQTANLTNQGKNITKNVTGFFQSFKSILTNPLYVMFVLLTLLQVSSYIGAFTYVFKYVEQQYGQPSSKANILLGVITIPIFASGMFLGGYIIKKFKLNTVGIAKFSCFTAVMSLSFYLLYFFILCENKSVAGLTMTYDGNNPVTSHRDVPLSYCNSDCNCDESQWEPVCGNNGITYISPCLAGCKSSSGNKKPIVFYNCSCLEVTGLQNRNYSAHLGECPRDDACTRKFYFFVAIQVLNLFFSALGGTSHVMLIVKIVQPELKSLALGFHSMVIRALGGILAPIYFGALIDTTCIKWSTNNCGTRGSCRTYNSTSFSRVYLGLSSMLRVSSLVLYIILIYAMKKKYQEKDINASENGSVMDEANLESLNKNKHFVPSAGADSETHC
CYP2E1: Cytochrome P450 2E1 (CYP2E1, Homo sapiens, UniProt P05181)
Sequence of UniProt P05181 (whole entry, looked up): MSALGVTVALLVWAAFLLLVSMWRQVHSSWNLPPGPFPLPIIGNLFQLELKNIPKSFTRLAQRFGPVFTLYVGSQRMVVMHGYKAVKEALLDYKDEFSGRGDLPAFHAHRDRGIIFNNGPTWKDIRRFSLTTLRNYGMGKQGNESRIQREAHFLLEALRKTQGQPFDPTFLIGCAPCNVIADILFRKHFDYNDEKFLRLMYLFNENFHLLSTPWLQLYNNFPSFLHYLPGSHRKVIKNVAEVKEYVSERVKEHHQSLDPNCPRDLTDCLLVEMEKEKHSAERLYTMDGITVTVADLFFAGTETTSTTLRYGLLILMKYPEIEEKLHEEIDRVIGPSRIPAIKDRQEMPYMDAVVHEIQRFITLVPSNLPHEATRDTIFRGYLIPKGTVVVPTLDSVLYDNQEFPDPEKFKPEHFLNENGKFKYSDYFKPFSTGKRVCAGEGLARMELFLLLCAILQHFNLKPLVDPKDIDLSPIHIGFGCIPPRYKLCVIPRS
SLC22A1: Solute carrier family 22 member 1 (SLC22A1, Homo sapiens, UniProt O15245)
Sequence of UniProt O15245 (whole entry, looked up): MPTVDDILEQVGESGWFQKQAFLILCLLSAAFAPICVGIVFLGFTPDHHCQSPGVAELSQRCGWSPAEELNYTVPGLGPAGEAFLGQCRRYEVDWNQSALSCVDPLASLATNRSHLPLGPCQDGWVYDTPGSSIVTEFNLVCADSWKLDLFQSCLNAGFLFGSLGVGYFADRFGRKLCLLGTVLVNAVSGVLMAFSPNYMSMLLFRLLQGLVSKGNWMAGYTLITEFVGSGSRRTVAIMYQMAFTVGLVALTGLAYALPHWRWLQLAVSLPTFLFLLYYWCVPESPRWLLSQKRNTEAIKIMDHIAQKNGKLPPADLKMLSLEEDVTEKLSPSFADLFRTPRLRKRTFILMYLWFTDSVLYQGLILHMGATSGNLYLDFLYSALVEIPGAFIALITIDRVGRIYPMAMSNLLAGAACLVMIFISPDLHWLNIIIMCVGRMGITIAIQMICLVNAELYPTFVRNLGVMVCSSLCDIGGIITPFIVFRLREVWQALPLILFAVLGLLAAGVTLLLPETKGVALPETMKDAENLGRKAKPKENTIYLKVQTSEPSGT
Sequence of UniProt P08183 (whole entry, looked up): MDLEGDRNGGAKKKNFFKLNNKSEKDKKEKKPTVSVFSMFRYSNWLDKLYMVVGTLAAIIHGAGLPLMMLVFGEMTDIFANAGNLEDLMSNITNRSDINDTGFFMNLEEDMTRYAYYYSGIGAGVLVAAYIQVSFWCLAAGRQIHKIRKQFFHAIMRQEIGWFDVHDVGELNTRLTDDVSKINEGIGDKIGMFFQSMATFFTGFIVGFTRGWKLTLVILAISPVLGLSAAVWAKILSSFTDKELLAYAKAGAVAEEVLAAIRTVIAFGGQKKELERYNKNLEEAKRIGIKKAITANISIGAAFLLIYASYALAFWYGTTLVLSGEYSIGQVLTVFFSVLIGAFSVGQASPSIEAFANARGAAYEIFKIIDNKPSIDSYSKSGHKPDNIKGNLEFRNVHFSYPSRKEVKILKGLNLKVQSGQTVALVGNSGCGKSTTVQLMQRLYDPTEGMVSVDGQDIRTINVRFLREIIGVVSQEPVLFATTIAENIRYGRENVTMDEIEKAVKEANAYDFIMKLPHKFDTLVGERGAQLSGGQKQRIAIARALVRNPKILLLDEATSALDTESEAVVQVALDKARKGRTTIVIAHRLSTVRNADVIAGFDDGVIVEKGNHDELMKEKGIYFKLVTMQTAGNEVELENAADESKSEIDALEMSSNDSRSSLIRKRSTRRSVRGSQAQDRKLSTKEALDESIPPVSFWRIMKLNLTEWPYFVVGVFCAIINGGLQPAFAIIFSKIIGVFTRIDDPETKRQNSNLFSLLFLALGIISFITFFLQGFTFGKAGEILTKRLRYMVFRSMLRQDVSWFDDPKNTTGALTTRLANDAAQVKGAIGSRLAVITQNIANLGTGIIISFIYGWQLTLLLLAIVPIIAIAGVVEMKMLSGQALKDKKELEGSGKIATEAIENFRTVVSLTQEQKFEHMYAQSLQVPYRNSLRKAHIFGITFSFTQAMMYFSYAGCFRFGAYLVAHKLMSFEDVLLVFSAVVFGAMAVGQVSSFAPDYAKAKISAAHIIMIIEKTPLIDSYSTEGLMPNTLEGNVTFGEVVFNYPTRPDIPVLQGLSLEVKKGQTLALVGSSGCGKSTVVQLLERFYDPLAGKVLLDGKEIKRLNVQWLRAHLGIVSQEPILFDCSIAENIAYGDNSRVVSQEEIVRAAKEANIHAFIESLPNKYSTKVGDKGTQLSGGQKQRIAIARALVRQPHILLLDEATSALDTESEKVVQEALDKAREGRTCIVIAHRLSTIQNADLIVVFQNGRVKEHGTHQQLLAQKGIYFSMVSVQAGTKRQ
Sequence of UniProt P22309 (whole entry, looked up): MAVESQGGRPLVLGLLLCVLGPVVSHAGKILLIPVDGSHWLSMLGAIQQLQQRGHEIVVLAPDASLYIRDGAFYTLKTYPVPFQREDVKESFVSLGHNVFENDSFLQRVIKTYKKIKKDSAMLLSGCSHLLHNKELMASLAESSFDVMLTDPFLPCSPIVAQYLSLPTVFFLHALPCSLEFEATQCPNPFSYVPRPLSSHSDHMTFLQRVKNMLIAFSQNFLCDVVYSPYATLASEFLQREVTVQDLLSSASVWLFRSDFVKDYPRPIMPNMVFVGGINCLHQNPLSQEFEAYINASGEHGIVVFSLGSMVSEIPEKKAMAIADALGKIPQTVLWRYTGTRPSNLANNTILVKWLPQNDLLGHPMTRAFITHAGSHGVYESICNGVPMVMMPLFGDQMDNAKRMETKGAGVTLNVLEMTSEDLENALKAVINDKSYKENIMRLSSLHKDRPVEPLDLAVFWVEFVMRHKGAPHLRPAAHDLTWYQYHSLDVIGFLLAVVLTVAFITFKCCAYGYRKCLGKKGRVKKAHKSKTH
Sequence of UniProt P00784 (whole entry, looked up): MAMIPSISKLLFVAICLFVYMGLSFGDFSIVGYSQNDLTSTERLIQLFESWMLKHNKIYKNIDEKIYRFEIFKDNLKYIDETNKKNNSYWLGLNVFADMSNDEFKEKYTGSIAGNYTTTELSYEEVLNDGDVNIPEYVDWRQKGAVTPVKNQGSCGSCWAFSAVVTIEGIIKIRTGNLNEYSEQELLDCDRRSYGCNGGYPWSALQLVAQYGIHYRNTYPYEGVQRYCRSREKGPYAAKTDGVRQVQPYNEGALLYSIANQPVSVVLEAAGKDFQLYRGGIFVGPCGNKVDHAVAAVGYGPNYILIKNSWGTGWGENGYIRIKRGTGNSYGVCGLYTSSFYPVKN

With Clc1ccc(Cl)c(-c2ccccc2Cl)c1 the maximum activity was 100% (AHR; reporter gene, antagonist; AZ-AHR cells; 40 µM, added: TCDD 4.5 nM; relative to: TCDD 4.5 nM).
For COc1cccc(C(=O)c2c[nH]c3ccccc23)c1, the Emax was 46% (AHR; reporter gene, agonist; HepG2; XRE-driven luciferase; relative to: ITE 10 µM).
CC1(C)[C@H](C(=O)OCc2cccc(Oc3ccccc3)c2)[C@@H]1C=C(Cl)Cl — result for “enzyme contribution to CLint”: 47.8% (human microsomal CES1; IVIVE from expressed enzymes; human, liver, in vivo scaled; 0.1 µM, age-specific).
C[C@@H](O)[C@H](N)C(=O)N1CCC[C@H]1C(=O)N1CCC[C@H]1C(=O)N[C@H](C(N)=O)[C@@H](C)O gave an inhibition of -5% (UDP-glucuronosyltransferase 1A1 (UGT1A1, Homo sapiens, UniProt P22309); enzyme activity; 30 µM).
For O=C(O)C(F)(F)C(F)(F)C(F)(F)C(F)(F)C(F)(F)C(F)(F)C(F)(F)F, the CLint was 43.8 ± 15.3 µL/min/mg (SLCO1B1; uptake, substrate; CHO cells stably expressing SLCO1B1, HBSS with HEPES; pH 7.4).
CC(C)[C@H](C(=O)O[C@H](C#N)c1cccc(Oc2ccccc2)c1)c1ccc(Cl)cc1: “relative enzyme contribution” 44.7% (human microsomal CES1; IVIVE from expressed enzymes; human, 5 years old; relative to: total hepatic CLint in vivo).
CC1CO1 (stereo not shown) gave an IC50 of 14000 µM (CYP2E1; enzyme activity, inhibitor; pH 7.4, 37 °C, added: 4-nitrophenol 50 µM).
Clc1ccc(-c2ccccc2Cl)cc1 gave a maximum activity of 58% (AHR; reporter gene, antagonist; AZ-AHR cells; 40 µM, added: TCDD 4.5 nM; relative to: TCDD 4.5 nM).
The inhibition of O=C1CCC(N2C(=O)c3ccccc3C2=O)C(=O)N1 (stereo not shown) is reported as 6.9% (SLC22A1; transport, inhibitor; transiently transfected cells; 100 µM, 10 (unit not given), added: metformin).
For CC[C@H](C)[C@H](NC(=O)[C@H](CCCCN)NC(=O)[C@H](CCC(=O)O)NC(=O)[C@H](CCCCN)NC(=O)[C@H](CO)NC(=O)[C@H](CCCCN)NC(=O)[C@H](CCCNC(=N)N)NC(=O)[C@H](Cc1ccccc1)NC(=O)[C@H](Cc1ccccc1)NC(=O)[C@H](CC(=O)O)NC(=O)CNC(=O)[C@H](CC(C)C)NC(=O)[C@@H](N)CC(C)C)C(=O)NCC(=O)N[C@@H](CCCCN)C(=O)N[C@@H](CCC(=O)O)C(=O)N[C@@H](Cc1ccccc1)C(=O)N[C@@H](CCCCN)C(=O)N[C@@H](CCCNC(=N)N)C(=O)N[C@H](C(=O)N[C@H](C(=O)N[C@@H](CCC(N)=O)C(=O)N[C@@H](CCCNC(=N)N)C(=O)N[C@H](C(=O)N[C@@H](CCCCN)C(=O)N[C@@H](CC(=O)O)C(=O)N[C@@H](Cc1ccccc1)C(=O)N[C@@H](CC(C)C)C(=O)N[C@@H](CCCNC(=N)N)C(=O)N[C@@H](CC(N)=O)C(=O)N[C@@H](CC(C)C)C(=O)N[C@H](C(=O)N1CCC[C@H]1C(=O)N[C@@H](CCCNC(=N)N)C(=O)N[C@H](C(=O)N[C@@H](CCC(=O)O)C(=O)N[C@@H](CO)C(=O)O)[C@@H](C)O)C(C)C)[C@@H](C)CC)C(C)C)[C@@H](C)CC, “remaining intact peptide” read 1.42% (human neutrophil elastase; LC-MS; 40 µM, 120 min, pH 7.5, 37 °C; relative to: 0 h).
The inhibition of Cc1oncc1C(=O)Nc1ccc(C(F)(F)F)cc1 is reported as 21.8% (SLC22A1; transport, inhibitor; transiently transfected cells; 100 µM, 10 (unit not given), added: metformin).
Under “MIC after protease treatment”, CC[C@H](C)[C@H](NC(=O)[C@H](CCCCN)NC(=O)[C@@H](NC(=O)[C@H](Cc1ccc(O)cc1)NC(=O)[C@H](CCCCN)NC(=O)[C@H](CCCCN)NC(=O)CNC(=O)[C@H](CCCCN)NC(=O)[C@@H](NC(=O)[C@H](C)NC(=O)[C@H](CC(C)C)NC(=O)[C@H](Cc1c[nH]c2ccccc12)NC(=O)CNC(=O)[C@@H](NC(=O)[C@H](Cc1ccccc1)NC(=O)[C@H](CCCCN)NC(=O)[C@H](CC(C)C)NC(=O)[C@H](Cc1ccccc1)NC(=O)[C@H](C)NC(=O)CNC(=O)[C@@H](N)CCSC)C(C)C)[C@@H](C)O)C(C)C)C(=O)N[C@@H](C)C(=O)N[C@@H](Cc1c[nH]c2ccccc12)C(=O)N[C@@H](CC(=O)O)C(=O)N[C@@H](Cc1c[nH]cn1)C(=O)N[C@@H](CCCCN)C(=O)NCC(=O)N[C@H](C(=O)N[C@H](C(=O)N[C@@H](CCSC)C(=O)N[C@@H](CCCCN)C(=O)N[C@@H](Cc1c[nH]c2ccccc12)C(=O)N[C@@H](CC(C)C)C(=O)N[C@@H](CC(N)=O)C(=O)N[C@@H](C)C(=O)NCC(=O)N[C@@H](CCC(N)=O)C(=O)N[C@H](C(=O)N[C@@H](Cc1ccccc1)C(=O)N[C@H](C(=O)N[C@@H](Cc1c[nH]c2ccccc12)C(=O)N[C@H](C(=O)N[C@@H](Cc1ccc(O)cc1)C(=O)N[C@@H](CCC(=O)O)C(=O)N[C@@H](CCC(N)=O)C(=O)N[C@H](C(=O)N[C@@H](CCCCN)C(=O)N[C@@H](CCCCN)C(=O)N[C@@H](CC(C)C)C(=O)N[C@@H](Cc1c[nH]c2ccccc12)C(=O)N[C@H](C(=O)O)[C@@H](C)O)[C@@H](C)CC)C(C)C)[C@@H](C)O)[C@@H](C)O)[C@@H](C)CC)[C@@H](C)O is recorded as 781 µg/mL (≈ 129 µM) (Papain (Carica papaya, UniProt P00784); Pediococcus damnosus, CECT 4797; 3 h, 37 °C, added: papain 1 mg/mL).
Under “relative enzyme contribution”, CC1(C)C(C=C(Cl)Cl)C1C(=O)OC(C#N)c1ccc(F)c(Oc2ccccc2)c1 (stereo not shown) is recorded as 61% (human microsomal CES1; IVIVE from expressed enzymes; human, 6 months old, expressed human CES1; 0.1 µM; relative to: total hepatic CLint in vivo).
O=C1c2ccccc2C(=O)c2c1ccc1ccccc21 gave an EC50 of 2.67 µM (AHR; reporter gene, agonist; Huh-7 reporter cells; 22 to 24 h).
For COc1ccc2cc1Oc1ccc(cc1)C[C@H]1c3cc(c(OC)cc3CCN1C)Oc1c(OC)c(OC)cc3c1[C@H](C2)N(C)CC3, the inhibition was 36.9% (SLCO1B1; transport, inhibitor; 10 µM, added: ES).
C=CC1CO1 (stereo not shown) gave a Ki of 140 µM (CYP2E1; inhibitor; human liver microsomes).
For Oc1ccc(-c2cccc(Cl)c2)cc1Cl, the maximum activity was 25% (AHR; reporter gene, antagonist; AZ-AHR cells; 25 µM, added: TCDD 4.5 nM; relative to: TCDD 4.5 nM).
The inhibition of CCN(CC)CCCC(C)Nc1ccnc2cc(Cl)ccc12 (stereo not shown) is reported as 91.5% (SLC22A1; transport, inhibitor; transiently transfected cells; 100 µM, 10 (unit not given), added: metformin).
Under “enzyme contribution to CLint”, CC(C)=CC1C(C(=O)OC(C#N)c2cccc(Oc3ccccc3)c2)C1(C)C (stereo not shown) is recorded as 50% (human microsomal CES1; IVIVE from expressed enzymes; human, liver, in vivo scaled; age-specific).
CCC(C)O (stereo not shown) has an IC50 of 630 µM (CYP2E1; enzyme activity, inhibitor).
For CC(C)CC(=O)OC[C@H]1O[C@@](C#N)(c2ccc3c(N)ncnn23)[C@H](O)[C@@H]1O, the recovery was 87.3% (ATP-dependent translocase ABCB1 (ABCB1, Homo sapiens, UniProt P08183); basolateral to apical transport; Caco-2; 90 µM, 2 h).
The IC50 of COc1cc(N2CC[C@@]3(O)C(=O)c4cc(C)c(C)cc4N=C23)ccn1 is reported as less than 50 µM (CYP2C; inhibitor).
CC1(C)C(/C=C(\Cl)C(F)(F)F)C1C(=O)OC(C#N)c1cccc(Oc2ccccc2)c1 (stereo not shown) — result for “enzyme contribution to CLint”: 58.5% (human microsomal CES1; IVIVE from expressed enzymes; human, liver, in vivo scaled; age-specific).
Cc1ccccc1 gave a remaining activity of 14% (CYP2E1; enzyme activity, inhibitor; concentration not given, 30 min, pH 7.4).
CCS(=O)(=O)N1CC(CC#N)(n2cc(-c3ncnc4[nH]ccc34)cn2)C1 has an inhibition of 67.2% (SLC22A1; transport, inhibitor; 50 µM, 10 (unit not given), added: metformin).
Clc1ccccc1-c1ccccc1Cl gave a maximum activity of 100% (AHR; reporter gene, antagonist; AZ-AHR cells; 40 µM, added: TCDD 4.5 nM; relative to: TCDD 4.5 nM).
For COc1cc2nc(N3CCN(C(=O)c4ccco4)CC3)nc(N)c2cc1OC, the inhibition was 89.5% (SLC22A1; transport, inhibitor; 100 µM).
For CC1(C)[C@H](C(=O)O[C@H](C#N)c2cccc(Oc3ccccc3)c2)[C@@H]1C=C(Br)Br, “enzyme contribution to CLint” read 0.36% (human cytosolic CES2; IVIVE from expressed enzymes; human, liver, in vivo scaled; 0.1 µM, age-specific).

Some of these lines once more:
C=CC1CO1 (stereo not shown) gave a Ki of 140 µM (CYP2E1; inhibitor; human liver microsomes).
The IC50 of COc1cc(N2CC[C@@]3(O)C(=O)c4cc(C)c(C)cc4N=C23)ccn1 is reported as less than 50 µM (CYP2C; inhibitor).
CC(C)[C@H](C(=O)O[C@H](C#N)c1cccc(Oc2ccccc2)c1)c1ccc(Cl)cc1: “relative enzyme contribution” 44.7% (human microsomal CES1; IVIVE from expressed enzymes; human, 5 years old; relative to: total hepatic CLint in vivo).
